Results pooled from the literature.
Each line is one published result; not all experiments were run side by side.

SMILES | organism | test | test system | conditions | MIC
C[N+]1=C2C(c3ccccc3)=[N+]([O-])c3ccccc3N2CCC1 | Eggerthella lenta | microbial growth | ATCC43055 |  | 4 µg/mL
c1ccc(CCNC2CCCc3c2[nH]c2ccc(C4CCCCC4)cc32)cc1 (stereo not shown) | Staphylococcus aureus | broth microdilution | HG001, cation-adjusted MHB |  | 4 µg/mL
CC[C@H](C)[C@@H]1NC(=O)CNC(=O)[C@H](CCCCN)NC(=O)[C@H](C)NC(=O)[C@H](CCC(=O)O)NC(=O)[C@H](Cc2ccccc2)NC(=O)[C@H](CO)NC(=O)[C@H](CC(C)C)NC(=O)[C@H](C(C)C)NC(=O)[C@H](CC(=O)O)NC(=O)[C@@H](NC(=O)[C@@H](NC(=O)[C@@H](N)C(C)C)[C@@H](C)O)CSSC[C@@H]2NC(=O)[C@H](CO)NC(=O)CNC(=O)CNC(=O)[C@H](CCCCN)NC(=O)[C@H](CCCCN)NC(=O)[C@H](CCCNC(=N)N)NC(=O)[C@H](CC(C)C)NC(=O)[C@H](C)NC(=O)[C@H]([C@@H](C)CC)NC(=O)[C@H](CSSC[C@@H](C(=O)N[C@@H](CCCNC(=N)N)C(=O)N[C@@H](CC(N)=O)C(=O)O)NC(=O)[C@H](C(C)C)NC(=O)[C@H](C)NC(=O)[C@H](C(C)C)NC(=O)CNC(=O)[C@H](CC(N)=O)NC(=O)[C@H](CCC(N)=O)NC2=O)NC(=O)[C@H](Cc2c[nH]cn2)NC(=O)[C@H](CC(C)C)NC(=O)[C@H](C)NC(=O)[C@H](C)NC(=O)[C@H](C)NC(=O)[C@H](CO)NC(=O)[C@H](Cc2c[nH]cn2)NC(=O)[C@H](CC(N)=O)NC(=O)[C@H](C(C)C)NC(=O)[C@H](C)NC1=O | Malassezia furfur | broth microdilution | KCTC 7744 | 32 °C, YM broth with 1% olive oil | 25 µM
N#Cc1ccc(-c2c[nH]c(CNC(=O)Nc3ncc(Sc4ccccn4)s3)n2)cc1 | Bacteroides ovatus | broth microdilution | ATCC 8485 | without verapamil | > 128 µM
CC[C@H](C)[C@H](NC(=O)[C@H](CO)NC(=O)[C@H](CO)NC(=O)[C@H](Cc1ccccc1)NC(=O)CN)C(=O)N[C@@H](Cc1ccccc1)C(=O)N[C@@H](CCCNC(=N)N)C(N)=O | Escherichia coli |  | ATCC 8739 | with: 2.5 mM CaCl2 | > 128 µM
COc1ccc2ccc3c(c2c1)C=[N+]1C2CCCCC2[N+]2=Cc4cccc(F)c4[O][Au-]21[O]3.F[P-](F)(F)(F)(F)F (stereo not shown) | Klebsiella pneumoniae | bacterial growth, broth microdilution | carbapenem-resistant | 24 h | 10 µM
CC(C)C[C@@H]1NC(=O)[C@H](C)NC(=O)[C@H](NC(=O)[C@H](CO)NC(=O)[C@@H](CCCCN)NC(=O)[C@@H](CC(C)C)NC(=O)[C@@H](N)Cc2ccccc2)[C@H](C(N)=O)OC(=O)[C@H](C)NC1=O | Bacillus subtilis Bacillus subtilis |  | ATCC 6051 | tested as TFA salt | 16 µg/mL
[O-][N+]1=C(c2ccsc2)C2=NCCCN2c2ccccc21 | Eggerthella lenta | microbial growth | ATCC43055 |  | 0.25 µg/mL
CN[C@@H]1[C@H](O)[C@H](NC)[C@H]2O[C@]3(O)[C@H](O[C@@H]2[C@H]1O)O[C@H](C)C[C@@]3(O)CNCc1ccc(OC(F)(F)F)cc1 | Listeria monocytogenes |  |  |  | 12.5 to 25 µg/mL
CC(C)C[C@@H]1NC(=O)[C@H](C)NC(=O)[C@H](C)NC(=O)[C@H](NC(=O)[C@H](CO)NC(=O)[C@@H](CCCCN)NC(=O)[C@@H](CC(C)C)NC(=O)[C@@H](N)Cc2ccccc2)[C@H](C(N)=O)OC1=O | Bacillus subtilis Bacillus subtilis |  | ATCC 6051 | tested as TFA salt | 0.5 to 1 µg/mL
Cc1cc(C)c(SCC2OC(OC3C(N)CC(N)C(OC4OC(CN)C(O)CC4N)C3O)C(O)C(N)C2O)c(C)c1 (stereo not shown) | Listeria monocytogenes |  | ATCC 19115 |  | 37.5 µg/mL
[O-][N+]1=C(Cc2ccccc2)C2=NCCCN2c2ccccc21 | Eggerthella lenta | microbial growth | ATCC43055 |  | 2 µg/mL
CN[C@@H]1[C@H](O)[C@H](NC)[C@H]2O[C@]3(O)[C@H](O[C@@H]2[C@H]1O)O[C@H](C)C[C@]3(O)CNCc1ccc(F)cc1 | Listeria monocytogenes |  |  |  | > 200 µg/mL
CC(C)C[C@H](NC(=O)[C@H](CC(C)C)NC(=O)[C@H](C)NC(=O)[C@H](NC(=O)[C@H](CO)NC(=O)[C@@H](CCCCN)NC(=O)[C@@H](CC(C)C)NC(=O)[C@@H](N)Cc1ccccc1)[C@@H](O)C(N)=O)C(=O)O | Bacillus subtilis Bacillus subtilis |  | ATCC 6051 | tested as TFA salt | > 32 µg/mL
O=[N+]([O-])c1ccc(C2=[N+]([O-])c3ccccc3N3CCCN=C23)cc1 | Fusobacterium nucleatum | microbial growth | ATCC25586 |  | ≤ 0.06 µg/mL
CC[C@H](C)[C@H](NC(=O)[C@H](CC(C)C)NC(=O)[C@H](CCC(N)=O)NC(=O)[C@H](CO)NC(=O)[C@H](CCCNC(=N)N)NC(=O)[C@@H](N)CO)C(=O)N[C@H](C(=O)N[C@@H](Cc1c[nH]cn1)C(=O)N[C@@H](CCC(N)=O)C(=O)N[C@@H](CCCNC(=N)N)C(=O)N[C@@H](CC(C)C)C(=O)N[C@@H](Cc1ccccc1)C(N)=O)C(C)C | Trichophyton rubrum | broth microdilution | ATCC 28189 |  | > 400 µg/mL
CC[C@H](C)[C@H](NC(=O)[C@@H](NC(=O)CN)C(C)C)C(=O)N[C@@H](Cc1ccccc1)C(=O)N[C@@H](CC(N)=O)C(=O)N[C@@H](C)C(=O)N[C@@H](CC(C)C)C(=O)N[C@@H](CCCCN)C(=O)NCC(=O)N[C@H](C(=O)N[C@@H](C)C(=O)N[C@@H](CCCCN)C(=O)N[C@H](C(=O)N[C@H](C(=O)N[C@@H](C)C(=O)N[C@@H](C)C(=O)N[C@@H](CCC(N)=O)C(=O)N[C@@H](CC(C)C)C(=O)N[C@@H](CC(C)C)C(=O)N[C@@H](CCCCN)C(=O)N[C@@H](CCCCN)C(=O)N[C@@H](C)C(=O)N[C@@H](CCCNC(=N)N)C(=O)N[C@H]1CSSC[C@@H](C(=O)O)NC(=O)[C@H](CO)NC(=O)[C@H](CCCCN)NC(=O)[C@H](CC(=O)O)NC(=O)[C@H](CC(C)C)NC(=O)[C@H](CCCCN)NC1=O)C(C)C)[C@@H](C)O)C(C)C | Staphylococcus aureus |  | MRSA NCTC 12493, Mueller-Hinton broth | with: KCl 4.5 mM | 4 µM
COc1ccc(C2=[N+]([O-])c3ccccc3N3CC(C)(C)CN=C23)cc1 | Peptostreptococcus anaerobius |  |  |  | 1 µg/mL
CCCCc1ccc(-c2nc(C)c(C(C)=NNC(=N)N)s2)cc1 | Staphylococcus aureus |  | NRS19 VISA |  | 1.3 µg/mL
[O-][N+]1=C(c2ccccc2)C2=NCCN2c2ccccc21 | Bacteroides ovatus |  | ATCC 84834 |  | ≤ 0.06 µg/mL
CC[C@@H](C)[C@@H](NC(=O)[C@@H](C)NC(=O)[C@@H](CCCCN)NC(=O)[C@@H](CC(C)C)NC(=O)[C@@H](C)NC(=O)[C@H](NC(=O)[C@@H](Cc1c[nH]cn1)NC(=O)[C@@H](CC(C)C)NC(=O)[C@H](NC(=O)[C@H](NC(=O)[C@@H](CCCCN)NC(=O)[C@@H](CCCCN)NC(=O)[C@@H](C)NC(=O)[C@@H](CO)NC(=O)[C@@H](CCCCN)NC(=O)[C@@H](Cc1ccccc1)NC(=O)[C@H](NC(=O)[C@@H](CCCCN)NC(=O)[C@@H](CC(C)C)NC(=O)[C@@H](Cc1ccccc1)NC(=O)[C@@H](CO)NC(=O)[C@@H](CCCCN)NC(=O)[C@@H](Cc1c[nH]c2ccccc12)NC(=O)[C@@H](CCCCN)NC(C)=O)[C@H](C)O)[C@H](C)O)C(C)C)[C@H](C)O)C(=O)N[C@H](CO)C(=O)N[C@H](CO)C(N)=O | Acinetobacter baumannii |  | 1012, Mueller-Hinton broth | 24 h, 37 °C | 0.8 µM
[O-][N+]1=C(c2ccccc2)C2=NCCCN2c2ncccc21 | Eggerthella lenta | microbial growth | ATCC43055 |  | ≤ 0.06 µg/mL
CC1C(=NOCc2cn(-c3ccccc3)nn2)C(C)C(c2ccc(Br)cc2)OC1c1ccc(Br)cc1 (stereo not shown) | Aspergillus flavus | microbial growth |  |  | 6.3 µg/mL
C[N+]1=C2C(c3ccc([N+](=O)[O-])cc3)=[N+]([O-])c3ccccc3N2CCC1 | Fusobacterium mortiferum | microbial growth |  |  | 1 µg/mL
CC[C@H](C)[C@H](NC(=O)[C@H](Cc1c[nH]c2ccccc12)NC(=O)[C@H](CCCNC(=N)N)NC(=O)[C@H](CCC(N)=O)NC(=O)[C@@H](NC(=O)[C@H](Cc1c[nH]c2ccccc12)NC(=O)[C@H](CCCNC(=N)N)NC(=O)[C@H](CCCNC(=N)N)NC(=O)[C@H](C)NC(=O)[C@H](C)NC(=O)[C@H](C)NC(=O)[C@@H](NC(=O)[C@H](CCCCN)NC(=O)[C@@H]1CCCN1C(=O)[C@H](CCCNC(=N)N)NC(=O)[C@H](Cc1c[nH]c2ccccc12)NC(=O)[C@H](CCCNC(=N)N)NC(=O)[C@H](CCCNC(=N)N)NC(=O)[C@@H](NC(=O)[C@H](Cc1c[nH]c2ccccc12)NC(=O)[C@H](CCCNC(=N)N)NC(=O)[C@H](CCC(N)=O)NC(=O)[C@@H](NC(=O)[C@H](Cc1c[nH]c2ccccc12)NC(=O)[C@H](CCCNC(=N)N)NC(=O)[C@@H](N)CCCNC(=N)N)C(C)C)[C@@H](C)CC)C(C)C)C(C)C)C(=O)N[C@@H](CCCNC(=N)N)C(=O)N[C@@H](CCCNC(=N)N)C(=O)N[C@@H](Cc1c[nH]c2ccccc12)C(=O)N[C@@H](CCCNC(=N)N)C(=O)N1CCC[C@H]1C(=O)N[C@@H](CCCCN)C(=O)N[C@H](C(N)=O)C(C)C | Malassezia furfur |  | DTO 383-D8 | 48 h, 30 °C | 5 µM

Repeated from above:
SMILES | organism | test | test system | conditions | MIC
COc1ccc2ccc3c(c2c1)C=[N+]1C2CCCCC2[N+]2=Cc4cccc(F)c4[O][Au-]21[O]3.F[P-](F)(F)(F)(F)F (stereo not shown) | Klebsiella pneumoniae | bacterial growth, broth microdilution | carbapenem-resistant | 24 h | 10 µM
CC(C)C[C@@H]1NC(=O)[C@H](C)NC(=O)[C@H](NC(=O)[C@H](CO)NC(=O)[C@@H](CCCCN)NC(=O)[C@@H](CC(C)C)NC(=O)[C@@H](N)Cc2ccccc2)[C@H](C(N)=O)OC(=O)[C@H](C)NC1=O | Bacillus subtilis Bacillus subtilis |  | ATCC 6051 | tested as TFA salt | 16 µg/mL
[O-][N+]1=C(c2ccsc2)C2=NCCCN2c2ccccc21 | Eggerthella lenta | microbial growth | ATCC43055 |  | 0.25 µg/mL
CN[C@@H]1[C@H](O)[C@H](NC)[C@H]2O[C@]3(O)[C@H](O[C@@H]2[C@H]1O)O[C@H](C)C[C@@]3(O)CNCc1ccc(OC(F)(F)F)cc1 | Listeria monocytogenes |  |  |  | 12.5 to 25 µg/mL
